# Experimental data of several laboratories.
# Numbered parts are unrelated; each lists some results of a single study. “And” joins repeats or separate records; there may be more than shown.
# Chain of UniProt P00519 (whole entry, unmodified, looked up): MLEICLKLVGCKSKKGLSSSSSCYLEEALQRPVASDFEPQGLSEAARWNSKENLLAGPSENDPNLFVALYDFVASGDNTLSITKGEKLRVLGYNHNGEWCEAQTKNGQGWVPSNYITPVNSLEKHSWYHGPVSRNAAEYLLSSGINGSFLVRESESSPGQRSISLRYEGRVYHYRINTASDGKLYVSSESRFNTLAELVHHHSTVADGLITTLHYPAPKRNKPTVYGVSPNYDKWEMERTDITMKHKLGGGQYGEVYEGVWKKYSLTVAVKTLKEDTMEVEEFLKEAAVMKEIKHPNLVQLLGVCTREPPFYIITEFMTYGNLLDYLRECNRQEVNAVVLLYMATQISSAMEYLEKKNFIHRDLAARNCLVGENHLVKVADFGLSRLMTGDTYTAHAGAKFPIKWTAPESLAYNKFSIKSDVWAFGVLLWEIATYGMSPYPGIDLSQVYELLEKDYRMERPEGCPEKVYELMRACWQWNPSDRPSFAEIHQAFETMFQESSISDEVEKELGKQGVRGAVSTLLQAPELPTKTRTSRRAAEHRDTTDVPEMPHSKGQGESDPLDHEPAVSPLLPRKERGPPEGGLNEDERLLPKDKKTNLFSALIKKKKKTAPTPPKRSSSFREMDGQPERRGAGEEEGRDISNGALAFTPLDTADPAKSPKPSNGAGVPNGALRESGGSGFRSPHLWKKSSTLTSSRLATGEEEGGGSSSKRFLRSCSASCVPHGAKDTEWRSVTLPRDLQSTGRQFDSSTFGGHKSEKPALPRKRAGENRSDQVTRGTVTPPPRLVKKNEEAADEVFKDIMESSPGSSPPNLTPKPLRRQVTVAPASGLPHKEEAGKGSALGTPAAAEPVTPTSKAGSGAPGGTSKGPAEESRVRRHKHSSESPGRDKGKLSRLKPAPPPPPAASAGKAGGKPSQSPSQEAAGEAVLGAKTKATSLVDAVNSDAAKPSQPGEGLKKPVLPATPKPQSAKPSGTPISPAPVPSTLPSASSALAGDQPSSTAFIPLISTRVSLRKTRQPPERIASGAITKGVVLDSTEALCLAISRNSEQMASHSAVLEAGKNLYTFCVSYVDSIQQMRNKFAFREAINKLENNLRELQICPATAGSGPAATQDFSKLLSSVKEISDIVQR
# Chain of UniProt Q13705 (whole entry, looked up): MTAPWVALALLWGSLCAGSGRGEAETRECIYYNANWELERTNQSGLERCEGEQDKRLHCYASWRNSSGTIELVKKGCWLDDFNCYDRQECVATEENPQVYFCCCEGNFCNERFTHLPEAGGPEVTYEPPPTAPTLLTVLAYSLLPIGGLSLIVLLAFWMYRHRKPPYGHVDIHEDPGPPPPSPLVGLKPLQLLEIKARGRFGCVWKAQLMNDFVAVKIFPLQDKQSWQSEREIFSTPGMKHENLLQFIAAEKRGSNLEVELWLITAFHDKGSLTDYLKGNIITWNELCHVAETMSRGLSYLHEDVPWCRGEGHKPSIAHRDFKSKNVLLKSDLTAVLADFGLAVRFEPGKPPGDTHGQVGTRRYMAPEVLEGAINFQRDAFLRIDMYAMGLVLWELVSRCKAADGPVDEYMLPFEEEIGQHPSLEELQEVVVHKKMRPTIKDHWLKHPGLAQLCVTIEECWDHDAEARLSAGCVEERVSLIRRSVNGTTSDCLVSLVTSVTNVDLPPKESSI
# Chain of UniProt Q14004 (whole entry, looked up): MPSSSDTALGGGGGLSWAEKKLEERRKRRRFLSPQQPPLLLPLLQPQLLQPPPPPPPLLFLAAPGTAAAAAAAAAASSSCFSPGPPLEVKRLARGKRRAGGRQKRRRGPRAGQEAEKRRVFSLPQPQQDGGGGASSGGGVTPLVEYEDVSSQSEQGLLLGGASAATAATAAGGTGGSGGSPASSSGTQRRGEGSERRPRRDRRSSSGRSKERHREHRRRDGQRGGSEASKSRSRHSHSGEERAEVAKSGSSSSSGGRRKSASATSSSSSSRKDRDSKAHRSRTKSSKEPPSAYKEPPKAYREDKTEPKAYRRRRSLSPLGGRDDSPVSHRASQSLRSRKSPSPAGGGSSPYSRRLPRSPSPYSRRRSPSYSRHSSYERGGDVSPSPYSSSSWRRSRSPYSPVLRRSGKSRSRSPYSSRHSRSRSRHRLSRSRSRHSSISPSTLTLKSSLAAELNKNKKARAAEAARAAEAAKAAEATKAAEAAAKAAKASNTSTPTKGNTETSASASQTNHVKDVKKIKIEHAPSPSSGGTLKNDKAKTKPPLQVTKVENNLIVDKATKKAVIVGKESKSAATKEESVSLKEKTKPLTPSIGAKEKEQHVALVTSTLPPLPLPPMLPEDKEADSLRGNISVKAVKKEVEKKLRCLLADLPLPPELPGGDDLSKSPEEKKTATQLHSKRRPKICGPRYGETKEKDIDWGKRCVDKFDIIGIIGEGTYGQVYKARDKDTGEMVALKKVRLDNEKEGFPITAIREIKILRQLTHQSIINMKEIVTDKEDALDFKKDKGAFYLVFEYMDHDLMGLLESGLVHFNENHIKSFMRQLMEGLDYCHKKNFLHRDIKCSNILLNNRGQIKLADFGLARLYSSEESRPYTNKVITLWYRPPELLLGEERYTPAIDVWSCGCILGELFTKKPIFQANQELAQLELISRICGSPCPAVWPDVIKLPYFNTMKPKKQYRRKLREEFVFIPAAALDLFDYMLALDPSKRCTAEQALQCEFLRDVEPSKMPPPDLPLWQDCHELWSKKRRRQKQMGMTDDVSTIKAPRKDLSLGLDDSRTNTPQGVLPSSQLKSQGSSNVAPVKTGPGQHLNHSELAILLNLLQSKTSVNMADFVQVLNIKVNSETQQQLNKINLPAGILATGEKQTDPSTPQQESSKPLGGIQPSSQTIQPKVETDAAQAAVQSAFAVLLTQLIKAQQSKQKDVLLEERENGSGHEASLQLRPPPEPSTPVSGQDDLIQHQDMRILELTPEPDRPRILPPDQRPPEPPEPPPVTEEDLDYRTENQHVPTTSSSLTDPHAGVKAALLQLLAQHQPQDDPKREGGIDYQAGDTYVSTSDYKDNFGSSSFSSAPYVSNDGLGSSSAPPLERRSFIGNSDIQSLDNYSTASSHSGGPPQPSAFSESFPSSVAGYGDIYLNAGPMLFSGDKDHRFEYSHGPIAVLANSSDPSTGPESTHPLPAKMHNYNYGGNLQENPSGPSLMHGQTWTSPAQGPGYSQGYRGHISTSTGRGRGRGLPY
# Chain of UniProt P33981 (whole entry, looked up): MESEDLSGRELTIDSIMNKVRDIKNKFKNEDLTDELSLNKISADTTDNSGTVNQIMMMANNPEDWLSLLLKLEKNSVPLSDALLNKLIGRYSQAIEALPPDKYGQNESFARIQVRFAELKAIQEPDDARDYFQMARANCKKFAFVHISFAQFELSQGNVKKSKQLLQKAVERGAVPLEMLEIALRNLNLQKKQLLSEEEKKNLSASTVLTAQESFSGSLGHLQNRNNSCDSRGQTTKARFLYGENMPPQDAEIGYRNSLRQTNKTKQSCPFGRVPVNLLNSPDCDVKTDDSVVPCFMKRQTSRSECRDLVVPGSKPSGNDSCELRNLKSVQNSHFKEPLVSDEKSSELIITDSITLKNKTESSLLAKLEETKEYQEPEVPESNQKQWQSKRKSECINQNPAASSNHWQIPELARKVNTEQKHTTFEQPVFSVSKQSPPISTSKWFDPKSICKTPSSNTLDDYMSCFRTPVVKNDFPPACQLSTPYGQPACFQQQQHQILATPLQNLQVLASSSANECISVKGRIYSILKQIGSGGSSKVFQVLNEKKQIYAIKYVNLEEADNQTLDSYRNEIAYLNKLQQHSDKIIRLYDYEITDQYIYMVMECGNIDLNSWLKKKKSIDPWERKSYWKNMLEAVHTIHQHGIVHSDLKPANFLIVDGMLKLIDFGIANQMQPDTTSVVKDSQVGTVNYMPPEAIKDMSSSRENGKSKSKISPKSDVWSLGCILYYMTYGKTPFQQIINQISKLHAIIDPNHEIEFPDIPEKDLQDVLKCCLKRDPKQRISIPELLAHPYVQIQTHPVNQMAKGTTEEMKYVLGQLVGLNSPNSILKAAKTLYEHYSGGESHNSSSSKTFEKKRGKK
# Chain of UniProt Q09013 (whole entry, looked up): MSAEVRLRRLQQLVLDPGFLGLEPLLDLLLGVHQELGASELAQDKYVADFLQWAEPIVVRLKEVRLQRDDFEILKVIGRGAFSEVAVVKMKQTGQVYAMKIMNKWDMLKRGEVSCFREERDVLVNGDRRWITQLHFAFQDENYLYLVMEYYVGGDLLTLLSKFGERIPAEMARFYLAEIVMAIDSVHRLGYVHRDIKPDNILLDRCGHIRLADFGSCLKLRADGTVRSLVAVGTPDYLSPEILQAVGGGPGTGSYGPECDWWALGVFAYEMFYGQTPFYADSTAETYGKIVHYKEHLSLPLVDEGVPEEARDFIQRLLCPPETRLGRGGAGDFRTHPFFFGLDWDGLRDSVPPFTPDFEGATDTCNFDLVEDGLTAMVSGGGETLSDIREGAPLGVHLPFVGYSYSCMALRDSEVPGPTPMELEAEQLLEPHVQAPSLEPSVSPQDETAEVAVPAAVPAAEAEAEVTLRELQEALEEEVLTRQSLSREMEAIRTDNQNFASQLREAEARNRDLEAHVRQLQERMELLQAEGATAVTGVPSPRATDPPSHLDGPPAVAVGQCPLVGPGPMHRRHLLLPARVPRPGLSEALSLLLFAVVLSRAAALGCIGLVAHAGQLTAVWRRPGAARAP
# Chain of UniProt P48730 (whole entry, looked up): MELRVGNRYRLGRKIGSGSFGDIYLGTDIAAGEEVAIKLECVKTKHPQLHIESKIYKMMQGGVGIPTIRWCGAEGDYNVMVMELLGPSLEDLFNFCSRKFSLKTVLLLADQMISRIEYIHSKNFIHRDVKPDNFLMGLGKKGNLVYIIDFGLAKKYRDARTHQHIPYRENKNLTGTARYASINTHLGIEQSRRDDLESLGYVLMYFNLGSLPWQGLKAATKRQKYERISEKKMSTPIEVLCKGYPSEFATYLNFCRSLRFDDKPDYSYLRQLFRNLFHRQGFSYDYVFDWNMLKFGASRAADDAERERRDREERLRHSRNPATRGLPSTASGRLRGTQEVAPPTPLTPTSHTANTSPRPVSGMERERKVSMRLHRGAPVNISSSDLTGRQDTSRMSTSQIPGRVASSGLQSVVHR

# Block 1 — read-out: binding; mode: competitor; technique: NanoBRET; cells: HEK293
# Compound: CC(C)C(=O)N1CCN(c2nc(OC[C@@H]3CCCN3C)nc3c2CCN(c2cccc4cccc(Cl)c24)C3)C[C@@H]1CC#N
# KRAS Q61R: GTPase KRas (KRAS, Homo sapiens, UniProt P01116, Q61R)
# KRAS Q61L: GTPase KRas (KRAS, Homo sapiens, UniProt P01116, Q61L)
target,conditions,normalized BRET
KRAS Q61R,11.1 µM,131% and 114% and 108%
KRAS Q61L,1.69 nM,98% and 103% and 100%
KRAS Q61L,3.7 µM,91.8% and 97% and 94.4%
KRAS Q61R,1.69 nM,103% and 92.2% and 102%
KRAS Q61L,137 nM,99.2% and 91.5% and 97.6%

# Block 2 — cell line: mouse MPNST tumor cells; technique: high-content nuclear imaging; refers to: cell number; tested at: 10 µM; time: 12 h; notes: mean of 2 replicates; relative to: plate mean; reading: higher = more cells
SMILES,nuclei count
CCN(CC)CCNC(=O)c1cc(Cl)c(N)cc1OC,-0.746 z-score
O=C1c2cccc3c2[C@H](CCC3)CN1[C@@H]1CN2CCC1CC2,0.124 z-score and 2.51 z-score
O=C(NCCCCCCNC(=O)ON=C1CCCCC1)ON=C1CCCCC1,0.191 z-score
Cn1c(NCCN(CCO)CCCc2ccc([N+](=O)[O-])cc2)cc(=O)n(C)c1=O,0.517 z-score
O=C1OC(CN2CCOCC2)CN1/N=C/c1ccc([N+](=O)[O-])o1 (stereo not drawn),-0.189 z-score
CCCCc1ccc2[nH]c(NC(=O)OC)nc2c1,-3.23 z-score

# Block 3 — tested at: 1 µM
# SMILES: Cc1ccc(NC(=O)c2ccnc(C(F)(F)F)c2)cc1-c1cc(OCCO)nc(N2CCOCC2)c1
target,test,remaining binding [%]
"Phosphatidylinositol 3-kinase C2 domain-containing subunit gamma (PIK3C2G, Homo sapiens, UniProt O75747)",binding,96
"Cyclin-dependent kinase-like 2 (CDKL2, Homo sapiens, UniProt Q92772)","binding, competition with immobilised ligand",96
"Ephrin type-A receptor 7 (EPHA7, Homo sapiens, UniProt Q15375)","binding, competition with immobilised ligand",99
"cGMP-dependent protein kinase 2 (PRKG2, Homo sapiens, UniProt Q13237)",binding,86
"Tyrosine-protein kinase ABL1 (ABL1, Homo sapiens, UniProt P00519, F317I)",,83
"Fibroblast growth factor receptor 4 (FGFR4, Homo sapiens, UniProt P22455)",binding,100
"Phosphatidylinositol 4,5-bisphosphate 3-kinase catalytic subunit alpha isoform (PIK3CA, Homo sapiens, UniProt P42336, E545A)",binding,88
"Activin receptor type-2B (ACVR2B, Homo sapiens, UniProt Q13705)","binding, competition with immobilised ligand",87
"Epidermal growth factor receptor (EGFR, Homo sapiens, UniProt P00533, T790M)",binding,100
"Receptor-type tyrosine-protein kinase FLT3 (FLT3, Homo sapiens, UniProt P36888, D835H)",binding,68

# Block 4 — host: human; medium: microsomes or S9; tested at: 2 µM; time: 0.5 h
SMILES,remaining compound
c1ccc2c(c1)CC(N1CCCCC1)c1ccccc1N2 (stereo not drawn),58.8%
CCC(C)c1ccc(O)c(NC(=O)c2nccnc2C(=O)O)c1 (stereo not drawn),96.5%
Cc1nnc2ccc(N3CCNc4ccccc4C3)nn12,72.1%
NCC1Cc2cc(F)cc(-c3ccnc4c(C(F)(F)F)cccc34)c2O1 (stereo not drawn),> 99.9%
Cc1ccc(Cn2cccc(NC(=O)NC3CCOC3C)c2=O)cc1 (stereo not drawn),52.7%
O=c1[nH]c(N2CCCCC2)nc2ncc3c(c12)-c1ccccc1C3,9.61%
CCOc1ccc(-c2c(C)n[nH]c2NC(=O)c2cc(OC)cc(OC)c2)cc1OCC,50.5%
CCN(CC)S(=O)(=O)c1ccc(S(=O)(=O)NC(C)c2nncn2C)cc1 (stereo not drawn),> 99%

# Block 5 — tested at: 1 µM
# Compound: CN1CCN(c2cnc3c(C4CCN(C(=O)c5ccc(OC(F)(F)F)cc5N)CC4)ncnc3c2)CC1
target,test,remaining binding
"Myotonin-protein kinase (DMPK, Homo sapiens, UniProt Q09013)","cell-free assay, competition with immobilised ligand",89%
"Epidermal growth factor receptor (EGFR, Homo sapiens, UniProt P00533, T790M)","cell-free assay, competition with immobilised ligand",84%
"Serine/threonine-protein kinase PLK1 (PLK1, Homo sapiens, UniProt P53350)","cell-free assay, competition with immobilised ligand",93%
"Mitogen-activated protein kinase kinase kinase 4 (MAP3K4, Homo sapiens, UniProt Q9Y6R4)","cell-free assay, competition with immobilised ligand",95%
"Epidermal growth factor receptor (EGFR, Homo sapiens, UniProt P00533, del747-750/T751S)","cell-free assay, competition with immobilised ligand",77%
"BMP-2-inducible protein kinase (BMP2K, Homo sapiens, UniProt Q9NSY1)","cell-free assay, competition with immobilised ligand",97%
"RAC-beta serine/threonine-protein kinase (AKT2, Homo sapiens, UniProt P31751)","cell-free assay, competition with immobilised ligand",100%
"Bone morphogenetic protein receptor type-2 (BMPR2, Homo sapiens, UniProt Q13873)","cell-free assay, competition with immobilised ligand",100%
"Fibroblast growth factor receptor 1 (FGFR1, Homo sapiens, UniProt P11362)","cell-free assay, competition with immobilised ligand",100%
"AP2-associated protein kinase 1 (AAK1, Homo sapiens, UniProt Q2M2I8)",binding,100%
"Dual specificity protein kinase TTK (TTK, Homo sapiens, UniProt P33981)","cell-free assay, competition with immobilised ligand",100%
"Casein kinase I isoform alpha-like (CSNK1A1L, Homo sapiens, UniProt Q8N752)","cell-free assay, competition with immobilised ligand",100%
"Mitogen-activated protein kinase 11 (MAPK11, Homo sapiens, UniProt Q15759)","cell-free assay, competition with immobilised ligand",98%
"Epidermal growth factor receptor (EGFR, Homo sapiens, UniProt P00533, L858R)","cell-free assay, competition with immobilised ligand",100%
"Non-receptor tyrosine-protein kinase TYK2, JH1 (TYK2, Homo sapiens, UniProt P29597)","cell-free assay, competition with immobilised ligand",93%
"Inhibitor of nuclear factor kappa-B kinase subunit alpha (CHUK, Homo sapiens, UniProt O15111)","cell-free assay, competition with immobilised ligand",100%
"Cyclin-dependent kinase 13 (CDK13, Homo sapiens, UniProt Q14004)","cell-free assay, competition with immobilised ligand",62%
"Epidermal growth factor receptor (EGFR, Homo sapiens, UniProt P00533, del746-750)","cell-free assay, competition with immobilised ligand",100%
"Casein kinase I isoform delta (CSNK1D, Homo sapiens, UniProt P48730)","cell-free assay, competition with immobilised ligand",100%
"Serine/threonine-protein kinase 10 (STK10, Homo sapiens, UniProt O94804)","cell-free assay, competition with immobilised ligand",52%
"SRSF protein kinase 1 (SRPK1, Homo sapiens, UniProt Q96SB4)","cell-free assay, competition with immobilised ligand",88%
"Tyrosine-protein kinase ABL1, non-phosphorylated (ABL1, Homo sapiens, UniProt P00519, F317L)","cell-free assay, competition with immobilised ligand",100%
"Proto-oncogene tyrosine-protein kinase Src (SRC, Homo sapiens, UniProt P12931)","cell-free assay, competition with immobilised ligand",100%
"Casein kinase II subunit alpha' (CSNK2A2, Homo sapiens, UniProt P19784)","cell-free assay, competition with immobilised ligand",93%
"Maternal embryonic leucine zipper kinase (MELK, Homo sapiens, UniProt Q14680)","cell-free assay, competition with immobilised ligand",85%

# A few entries again (block 5):
target,test,remaining binding
"Tyrosine-protein kinase ABL1, non-phosphorylated (ABL1, Homo sapiens, UniProt P00519, F317L)","cell-free assay, competition with immobilised ligand",100%
"Proto-oncogene tyrosine-protein kinase Src (SRC, Homo sapiens, UniProt P12931)","cell-free assay, competition with immobilised ligand",100%
"Casein kinase II subunit alpha' (CSNK2A2, Homo sapiens, UniProt P19784)","cell-free assay, competition with immobilised ligand",93%
"Maternal embryonic leucine zipper kinase (MELK, Homo sapiens, UniProt Q14680)","cell-free assay, competition with immobilised ligand",85%
